Published values of several laboratories.
Numbered parts are unrelated; each lists some results of a single study.

Sample 1
Target: Histone acetyltransferase KAT6A, winged helix 2, GST fusion (KAT6A, Homo sapiens, UniProt Q92794, residues 85-181)
Method: protein binding microarray
Molecule type: double-stranded DNA, one strand shown
Medium: in vitro
Tested at: not given
Setting: 8-mer, flanks averaged, mean of 2 arrays, mostly near background
Relative to: not given
Direction: higher = stronger binding
Residues (chain): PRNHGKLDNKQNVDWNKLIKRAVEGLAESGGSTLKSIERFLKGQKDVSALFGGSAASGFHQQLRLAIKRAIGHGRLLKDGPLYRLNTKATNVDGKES
Strand	E-score
GAATACAC	-0.045
GGGGAGAA	-0.0211
ACCAGCCG	0.1
TCTCTCCA	-0.0703
AATACTTA	-0.158
AACGTAAT	-0.195
ACTACCAA	0.01
CATGCCAC	0.0101
CGCACGGA	0.184

Sample 2
Target: Interferon regulatory factor 5, full length, phosphomimetic (IRF5, Homo sapiens, UniProt Q13568-2, residues 1-514, K96S/S451D/S453D/S456D/S462D)
Method: protein-binding microarray
Molecule type: double-stranded DNA, one strand shown
Medium: in vitro
Tested at: 250 nM
Setting: 60-bp whole probe
With: salmon DNA 0.4 mg/ml
Relative to: random background probes
Direction: higher = stronger binding
Shared flanks, not repeated: GCCTAGCAC … GTGCTAGGTCTTGATTCGCTTGACGCTGCTG
Strand	log fluorescence [z-score]
TCCCACAGTCGAAAGTCTGC	1.42
TCCATTTTCTAAATGCCCTA	0.937
TTAGGTTTCGGTTACGGTTA	11
GCCGATTTCAGTTCCGAGAC	1.71
GACGGTTTCGGTATCGGGAG	9.83

Sample 3
Target: Sal-like protein 4, full length isoform B (SALL4, Homo sapiens, UniProt Q9UJQ4-2, residues 1-616)
Method: universal PBM
Molecule type: double-stranded DNA, one strand shown
Medium: in vitro
Tested at: not given
Setting: 8-mer, flanks averaged, mean of replicates
Direction: higher = stronger binding
Construct (chain): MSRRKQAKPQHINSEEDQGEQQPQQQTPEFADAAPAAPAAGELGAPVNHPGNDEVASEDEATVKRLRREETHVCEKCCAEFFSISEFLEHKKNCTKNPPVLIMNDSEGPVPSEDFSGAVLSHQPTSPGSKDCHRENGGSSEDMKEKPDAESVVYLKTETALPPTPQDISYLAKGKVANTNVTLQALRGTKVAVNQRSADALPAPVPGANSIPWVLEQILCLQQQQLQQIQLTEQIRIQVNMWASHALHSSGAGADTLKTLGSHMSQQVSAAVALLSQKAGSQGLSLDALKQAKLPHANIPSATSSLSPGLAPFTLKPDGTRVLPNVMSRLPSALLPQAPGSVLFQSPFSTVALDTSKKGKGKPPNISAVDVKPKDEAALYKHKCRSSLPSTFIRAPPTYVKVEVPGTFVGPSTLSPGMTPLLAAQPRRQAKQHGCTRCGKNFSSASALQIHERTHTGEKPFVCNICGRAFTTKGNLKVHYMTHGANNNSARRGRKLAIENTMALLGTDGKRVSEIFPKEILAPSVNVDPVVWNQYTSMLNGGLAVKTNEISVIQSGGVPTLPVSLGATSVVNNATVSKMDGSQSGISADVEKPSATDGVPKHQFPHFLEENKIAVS
Strand	E-score
CCCGGGGA	-0.318
GCACTTGA	-0.181
GGACGGCC	-0.398
AAAGTTCT	0.111
CGGTGACC	-0.255
CGCGCAAC	-0.17
GCTTCCGA	-0.0146
GTCGTTTA	0.0892
CATTACCC	-0.017
CTTGTCGC	-0.104
CACACCGG	-0.404
CGCGGCCA	-0.244
TCCGCAGA	-0.134

Mixed results
Molecule	target	assay	test system	conditions	scale	measurement	value
PhoQ, residues 284 288 289 292 302 303 AGHLVA	PhoP, residues 12 14 15 18 19 HEGLL (Escherichia coli, UniProt P23836)	Sort-seq, measured: YFP reporter	E. coli	PhoQ-PhoP variant library, with: 10 µM Mg2+	relative to: high Mg2+ state, higher = stronger signaling	fold induction	1.99

A few entries again (sample 3):
Strand	E-score
CATTACCC	-0.017
CTTGTCGC	-0.104
